Assay results pooled from the literature.
Compare with care: the assays were run in different laboratories. pIC50: −log10 of the molar value.

Cc1nc(Nc2ncc(C(=O)Nc3c(C)cccc3Cl)s2)cc(N2CC[C@H](O)C2)n1
pIC50 (SU-DHL-1; cell growth or viability, ATP luminescence; 72 h): < 5.00

Cc1ccccc1Cn1cc(-c2cccc(NC(=O)Nc3ccc(F)cc3)c2)nn1
pIC50 (Huh-7; cell growth or viability, CCK-8; 72 h): 4.93

Cc1nc(Nc2ccc3c(c2)/C(=C/c2ccccc2C)C(=O)N3C)c2ccccc2n1
pIC50 (B16; cell growth or viability, MTT): 5.49

CCCn1cnc2ccc(-c3ccc(N4CCCCCCC4=O)nc3)cc2c1=O
pIC50 (NCI-H1975; cell growth or viability, CCK-8; 72 h): < 5.00

C[C@H]1[C@H](C)CC[C@]2(CO)CC[C@]3(C)C(=CC[C@@H]4[C@@]5(C)CC[C@H](O)C(C)(C)[C@@H]5CC[C@]43C)[C@H]12
pIC50 (RAW264.7; NO release, inhibitor, Griess; LPS-stimulated): < 4.00

CCCn1cnc2ccc(-c3ccc(NC(=O)CC4CCC4)nc3)cc2c1=O
pIC50 (NCI-H1975; cell growth or viability, CCK-8; 72 h): 5.74

C[C@]12O[C@H](C[C@]1(O)CO)n1c3ccccc3c3c4c(c5c6ccccc6n2c5c31)CNC4=O
pIC50 (MOLM-13; cell growth or viability, ATP luminescence; 72 h): 7.92

CC(C)C[C@H](NC(=O)[C@H](Cc1ccccc1)NC(=O)c1cnccn1)B(O)O
pIC50 (RKO; cell growth or viability, ATP luminescence): 8.05

Cc1nc(Nc2ccc3c(c2)/C(=C/c2ccccc2Cl)C(=O)N3)c2ccccc2n1
pIC50 (BEAS-2B; cell growth or viability, MTT): 4.41

COc1cc2nc(N3CCN(C(=O)c4ccco4)CC3)nc(N)c2cc1OC
pIC50 (HONE1; cell growth or viability, MTT; 48 h): 4.25

COc1cc2ncnc(Nc3ccc4c(c3)/C(=C/c3cccc(Cl)c3)C(=O)N4C)c2cc1OC
pIC50 (B16; cell growth or viability, MTT): 5.68

Cc1cc(/C=C/C#N)cc(C)c1Nc1ccnc(Nc2ccc(C#N)cc2)n1
pIC50 (HONE1; cell growth or viability, MTT; 48 h): 4.59

CCCCn1cnc2ccc(-c3ccc(NC(=O)CCC)nc3)cc2c1=O
pIC50 (HCC827; cell growth or viability, CCK-8; 72 h): 5.48

COc1cc2ncnc(Nc3ccc4c(c3)/C(=C/c3ccccc3)C(=O)N4)c2cc1OC
pIC50 (B16; cell growth or viability, MTT): < 4.30

C=CC(=O)N1CCN(c2nc(=O)n(-c3c(C)ccnc3C(C)C)c3nc(-c4c(O)cccc4F)c(F)cc23)[C@@H](C)C1
pIC50 (NCI-H23; cell growth or viability, ATP luminescence): < 5.00

Cc1nc(Nc2ccc3c(c2)/C(=C/c2ccccc2C)C(=O)N3)c2ccccc2n1
pIC50 (B16; cell growth or viability, MTT): 5.86

COC(=O)c1cc(C(C)=NNc2nc(-c3cccc4cc[nH]c34)cs2)ccc1O
pIC50 (human Skin fibroblast; cell growth or viability, MTT; 96 h): 3.69

C=C(F)C(=O)N1CCN(c2nc(OC[C@@H]3CCCN3C)nc3c2CCN(c2cccc4cccc(Cl)c24)C3)C[C@@H]1CC#N
pIC50 (NCI-H358; cell growth or viability, ATP luminescence): 7.14

CCCCC(=O)Nc1ccc(-c2cnc3ccn(CCC)c(=O)c3c2)cn1
pIC50 (HCC827; cell growth or viability, CCK-8; 72 h): 5.77

COc1cccc2c1C(=O)c1c(O)c3c(c(O)c1C2=O)C[C@@](O)(C(=O)CO)C[C@@H]3O[C@H]1C[C@H](N)[C@H](O)[C@H](C)O1
pIC50 (A549; cell growth or viability, MTT; 75 h): 6.62

CCCCC(=O)Nc1ccc(-c2ccc3ncn(CC4CCC4)c(=O)c3c2)cn1
pIC50 (HCC827; cell growth or viability, CCK-8; 72 h): 7.05

Cc1nc(NC(=O)N2CCC[C@H]2C(N)=O)sc1-c1ccnc(C(C)(C)C(F)(F)F)c1
pIC50 (B16; cell growth or viability, MTT): 4.69

CCCCC(=O)Nc1ccc(-c2ccc3ncn(CCC)c(=O)c3c2)cc1F
pIC50 (HCC827; cell growth or viability, CCK-8; 72 h): 6.14

COc1cc2ncnc(Nc3ccc4c(c3)/C(=C/c3ccccc3)C(=O)N4C)c2cc1OC
pIC50 (BEAS-2B; cell growth or viability, MTT): 4.91

CCCCNC(=O)Nc1ccc(-c2ccc3ncn(CCCC)c(=O)c3c2)cn1
pIC50 (HCC827; cell growth or viability, CCK-8; 72 h): 5.66

COC(=O)CN=c1scc(-c2ccccc2)n1-c1ccc(C)cc1
pIC50 (HepG2; cell growth or viability, MTT; 72 h): 4.31

Cc1ccc(NC(=O)Nc2ccc(-c3ccc4ncn(Cc5ccccc5)c(=O)c4c3)cn2)cc1
pIC50 (NCI-H1975; cell growth or viability, CCK-8; 72 h): < 5.00

Cc1nc(N(C)c2ccc3c(c2)/C(=C/c2ccccc2Cl)C(=O)N3C)c2ccccc2n1
pIC50 (BEAS-2B; cell growth or viability, MTT): 5.05

For quick reference, copied from above:
COc1cc2ncnc(Nc3ccc4c(c3)/C(=C/c3cccc(Cl)c3)C(=O)N4C)c2cc1OC
pIC50 (B16; cell growth or viability, MTT): 5.68

Cc1cc(/C=C/C#N)cc(C)c1Nc1ccnc(Nc2ccc(C#N)cc2)n1
pIC50 (HONE1; cell growth or viability, MTT; 48 h): 4.59

CCCCn1cnc2ccc(-c3ccc(NC(=O)CCC)nc3)cc2c1=O
pIC50 (HCC827; cell growth or viability, CCK-8; 72 h): 5.48

COc1cc2ncnc(Nc3ccc4c(c3)/C(=C/c3ccccc3)C(=O)N4)c2cc1OC
pIC50 (B16; cell growth or viability, MTT): < 4.30
